# Measured values gathered from unrelated publications.
# Compare with care: the assays were run in different laboratories. Numbers after ± are the reported error.
# Cell line: SMMC-7721
SMILES,assay,conditions,measurement,value
COc1c(O)cc2oc3cc4c(c(O)c3c(=O)c2c1CC(O)C(C)(C)O)CC(O)O4 (centres unmarked),cell growth or viability,48 h,IC50,> 40 µM
O=C(/C=C/c1ccc(O[C@@H]2O[C@H](CO)[C@@H](O)[C@H](O)[C@H]2O)cc1)c1ccc(O)cc1O,MTT,concentration not given,cell growth,no effect
CC(C)CCc1c(O)cc2oc3cc(O)c(O)c(CCC(C)C)c3c(=O)c2c1O,cell growth or viability,48 h,IC50,6.51 µM
COc1ccc2cc3[n+](cc2c1OCc1cn(Cc2ccc(S(C)(=O)=O)cc2)nn1)CCc1cc2c(cc1-3)OCO2,"cell growth or viability, MTT",,IC50,69.7 µM
OCC1OC(OCC2OC(OC3OC=CC4C(O)C5OC5(CO)C34)C(O)C(O)C2O)C(O)C(O)C1O (centres unmarked),MTT,concentration not given,cell growth,no effect
Cc1ccc2oc(=O)c(-c3nc4cnccc4[nH]3)cc2c1,cell proliferation,72 h,EC50,9.37 µM
O=C(/C=C/c1ccc2c(c1)C(=O)N(CCCc1ccccc1)CC2)NO,"cell growth, SRB",72 h,IC50,2.76 ± 1.32 µM
COc1ccc2cc3[n+](cc2c1OCc1cn(Cc2ccccc2C#N)nn1)CCc1cc2c(cc1-3)OCO2,"cell growth or viability, MTT",,IC50,64 µM
COc1c(O)cc2oc3cc(O)c4c(c3c(=O)c2c1CCC(C)(C)O)OC(C)(C)CC4,cell growth or viability,48 h,IC50,> 40 µM
Nc1ccn([C@@H]2O[C@H](CO)[C@@H](O)[C@@H]2O)c(=O)n1,"cell growth or viability, MTT",24 h,IC50,630 µM
COc1ccc2cc3[n+](cc2c1OCc1cn(Cc2ccc(Cl)cc2Cl)nn1)CCc1cc2c(cc1-3)OCO2,"cell growth or viability, MTT",,IC50,27.9 µM

# Some of these lines once more:
SMILES,assay,conditions,measurement,value
COc1ccc2cc3[n+](cc2c1OCc1cn(Cc2ccc(S(C)(=O)=O)cc2)nn1)CCc1cc2c(cc1-3)OCO2,"cell growth or viability, MTT",,IC50,69.7 µM
